Experimental data collected from several papers.
Numbered parts are unrelated; each lists some results of a single study. “And” joins repeats or separate records; there may be more than shown.

Study 1
Target: RING finger protein unkempt homolog, zinc fingers 1-6, GST-SBP tag (UNK, Homo sapiens, UniProt Q9C0B0, residues 30-357)
Chain of UniProt Q9C0B0 (30-357, looked up): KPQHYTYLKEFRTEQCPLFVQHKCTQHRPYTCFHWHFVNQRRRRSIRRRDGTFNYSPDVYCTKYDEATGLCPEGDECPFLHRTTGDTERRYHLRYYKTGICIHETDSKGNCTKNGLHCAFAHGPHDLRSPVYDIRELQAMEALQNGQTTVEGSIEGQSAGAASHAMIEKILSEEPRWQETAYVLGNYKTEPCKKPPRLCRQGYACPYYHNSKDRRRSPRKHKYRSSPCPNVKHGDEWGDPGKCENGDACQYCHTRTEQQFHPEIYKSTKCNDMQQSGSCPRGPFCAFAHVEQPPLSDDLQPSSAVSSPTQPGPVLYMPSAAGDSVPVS
Technique: RNA Bind-n-Seq
Form: RNA
Sample: in vitro
Tested at: not given
Setting: RNA with constant flanks, ends assumed
Baseline: input RNA pool
Reading: higher = stronger binding
Quantity: bound/input enrichment
GGGAGUUCUACAGUCCGACGAUCGCCCGGAAAACUGUGAAAAAAAUACUUAGUGACAUUGGGUUGGAAUACUGUAAAGAACAUACCGAAGAUUUUAAACAGUUUGAACCUAAUGACUUUUAUUUGAAAAACACUACAUGGGAGCAACAGAGGAUUGAGCAUCA: 0.322 ratio
GGGAGUUCUACAGUCCGACGAUCUAUGAGAAGGAUGCACUGAGCAUAAGGAAGGUCGGAGAGGAGGAGUGUGUGGCUCCCGGCAGUUUCUUUUUCUGGAAGUGUUUGCAUGGAGAAAGCUCCACUGAAGAGAUGUGCCACAGCCAACAGAGGAUUGAGCAUCA: 0.126 ratio
GGGAGUUCUACAGUCCGACGAUCUCUAUUGCUACAAGAGAGGGAGUUGCUGUUCUGUAUUCUAAACUGGUUAGCAAUAAGGAAGCCGUACCUUUGCCCCAACAAGUUUUAUGCCUCAAAGGACCACAGUUGCCAGACUUUGAACAACAGAGGAUUGAGCAUCA: 0.138 ratio
GGGAGUUCUACAGUCCGACGAUCUUGCAUACACACACCCCCACCCCAGAGUGUUCUCAGUAUGUCAGAGAAAGUGCCACAGCAUCCGGACGGGAGCUUGGAGAACGUUUUCUAGAAAAGGGUUAGCUUCCUGUUGGCAUGAAACAACAGAGGAUUGAGCAUCA: 0.771 ratio

Study 2
Target: Histone acetyltransferase KAT6A, winged helix 2, GST fusion (KAT6A, Homo sapiens, UniProt Q92794, residues 85-181)
Technique: protein binding microarray
Form: double-stranded DNA, one strand shown
Sample: in vitro
Tested at: not given
Setting: 8-mer, flanks averaged, mean of 2 arrays, mostly near background
Baseline: not given
Reading: higher = stronger binding
Quantity: E-score
Residues (chain): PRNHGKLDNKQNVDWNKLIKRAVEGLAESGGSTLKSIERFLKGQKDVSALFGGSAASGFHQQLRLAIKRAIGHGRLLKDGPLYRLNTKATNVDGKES
CCTATAGA: -0.191
AAAAGCCA: 0.203
ACACGGTA: -0.0451
CTCCTAAG: -0.00576
CCCCACAG: -0.0216
ACAGTGAC: 0.0383

Study 3
Target: PABPC1L2, full length, GST fusion (mouse, UniProt A0ABA7IW68)
Technique: RNAcompete
Form: RNA
Sample: in vitro
Tested at: 20 nM
Setting: 7-mer, probes averaged, single round
Baseline: mean of 7-mers
Reading: higher = stronger binding
Quantity: 7-mer Z-score
Construct (chain): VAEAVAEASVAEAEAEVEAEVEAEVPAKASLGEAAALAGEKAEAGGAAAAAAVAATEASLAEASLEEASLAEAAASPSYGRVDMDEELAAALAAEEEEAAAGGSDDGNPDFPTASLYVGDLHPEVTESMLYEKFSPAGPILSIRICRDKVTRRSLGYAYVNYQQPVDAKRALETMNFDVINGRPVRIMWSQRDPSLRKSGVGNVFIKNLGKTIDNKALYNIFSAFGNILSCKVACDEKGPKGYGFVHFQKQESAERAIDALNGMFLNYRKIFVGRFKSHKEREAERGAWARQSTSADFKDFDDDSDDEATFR
AGUGUCU: -0.258
UUCAUUA: -0.199
UUGGCAG: 0.0225

Other studies, line by line
PhoQ, residues 284 288 289 292 302 303 AMDMFI  fold induction (PhoP, residues 12 14 15 18 19 LWHCS (Escherichia coli, UniProt P23836); Sort-seq, measured: YFP reporter; E. coli; PhoQ-PhoP variant library, together with: 10 µM Mg2+; baseline: high Mg2+ state, higher = stronger signaling): 0.629 and 0.728

Some of these lines once more (other studies, line by line):
PhoQ, residues 284 288 289 292 302 303 AMDMFI  fold induction (PhoP, residues 12 14 15 18 19 LWHCS (Escherichia coli, UniProt P23836); Sort-seq, measured: YFP reporter; E. coli; PhoQ-PhoP variant library, together with: 10 µM Mg2+; baseline: high Mg2+ state, higher = stronger signaling): 0.629 and 0.728
